# Assay results collected from several papers.
# Each line is one published result; not all experiments were run side by side. Numbers after ± are the reported error.
# Organism: Escherichia coli
Substance,assay,test system,conditions,MIC
C[C@H]1COc2c(N3CCN(C)CC3)c(F)cc3c(=O)c(C(=O)O)cn1c23,broth microdilution,ATCC 25922,"16 to 20 h, 37 °C",0.024 µg/mL
CN(C)c1ncc(O)c2c1C[C@H]1C[C@H]3[C@H](N(C)C)C(O)=C(C(N)=O)C(=O)[C@@]3(O)C(O)=C1C2=O.Cl.Cl,CLSI broth dilution,ATCC 25922,,0.13 µg/mL
Oc1ccc(Cl)cc1C=Nc1ncn[nH]1,"microbial growth, broth dilution",ATCC25922,,64 µg/mL
CCCCCCCCCC(=O)N[C@@H](CCCCN)CN1CC(=O)N(c2ccc(N3CN(C[C@H](CCCCN)NC(=O)CCCCCCCCC)CC3=O)cc2)C1,microbial growth,ATCC25922,,< 6 µg/mL
CCOC(=O)c1c(N)csc1-c1cn(-c2ccccc2)nc1-c1ccc(C)cc1,broth microdilution,clinical urinary isolate,compound gamma-irradiated 10 kGy,0.122 ± 0.2 µg/mL
CCN(CC)c1ccc(C=O)c(O)c1,"microbial growth, broth dilution",ATCC25922,,> 256 µg/mL
CC[C@H](C)[C@H](NC(=O)[C@H](CCCNC(=N)N)NC(=O)[C@H](CCCNC(=N)N)NC(=O)[C@@H]1CCCN1C(=O)[C@@H]1CCCN1C(=O)[C@H](CCCNC(=N)N)NC(=O)[C@@H]1CCCN1C(=O)[C@H](CCCNC(=N)N)NC(=O)[C@@H]1CCCN1C(=O)[C@H](CC(C)C)NC(=O)[C@H](Cc1ccc(O)cc1)NC(=O)[C@@H]1CCCN1C(=O)[C@@H]1CCCN1C(=O)[C@H](CCCCN)NC(=O)[C@H](CC(=O)O)NC(=O)[C@@H](N)C(C)C)C(=O)N[C@@H](Cc1ccc(O)cc1)C(=O)N[C@@H](CC(N)=O)C(=O)N[C@@H](CCCNC(=N)N)C(N)=O,,"T7 LysY/I, Mueller-Hinton broth","18 h, 37 °C",25 ± 5 µM
"KFFKFFKFFK (peptide-PNA conjugate, scrambled)",broth microdilution,"peptide, UPEC 536, Mueller-Hinton broth",24 h,> 10 µM
CCN(CC)c1ccc(C=Nc2cc(C)c(Br)cn2)c(O)c1,"microbial growth, broth dilution",ATCC25922,,> 256 µg/mL
O=[N+]([O-])c1ccc(C=Nc2nc[nH]n2)c(O)c1,"microbial growth, broth dilution",ATCC25922,,> 256 µg/mL
CC1(C)S[C@@H]2[C@H](NC(=O)C(C(=O)O)c3ccccc3)C(=O)N2[C@H]1C(=O)O (stereo partly shown),broth microdilution,"BW25113, Mueller-Hinton broth",together with: CCCP 50 µg/mL,12.5 µg/mL
O=C(O)c1ccc(C=Nc2ncn[nH]2)cc1,"microbial growth, broth dilution",ATCC25922,,> 256 µg/mL
CCCCCCCCC[n+]1c2cc(N(C)C)ccc2cc2ccc(N(C)C)cc21.[Br-],"microbial growth, broth dilution",ATCC25922,,3.12 µg/mL
CC[C@H](C)[C@H](NC(=O)[C@H](CCCNC(=N)N)NC(=O)[C@H](CCCNC(=N)N)NC(=O)[C@@H]1CCCN1C(=O)[C@@H]1CCCN1C(=O)[C@H](CCCNC(=N)N)NC(=O)[C@@H]1CCCN1C(=O)[C@H](CCCNC(=N)N)NC(=O)[C@@H]1CCCN1C(=O)[C@H](CC(C)C)NC(=O)[C@H](Cc1ccc(O)cc1)NC(=O)[C@@H]1CCCN1C(=O)[C@@H]1CCCN1C(=O)[C@H](CCCCN)NC(=O)[C@H](CC(=O)O)NC(=O)[C@@H](N)C(C)C)C(=O)N[C@@H](Cc1ccc(O)cc1)C(=O)N[C@@H](CC(N)=O)C(=O)N[C@@H](CCCNC(=N)N)C(N)=O,alamarBlue,SQ110 LptD defective,"overnight, 37 °C",1 µM
CC1(C)SC2C(NC(=O)C(NC(=O)C3=C(O)C(Cc4ccc(O)cc4)NC3=O)c3ccccc3)C(=O)N2C1C(=O)O (stereo not shown),broth microdilution,"BW25113, Mueller-Hinton broth",together with: CCCP 50 µg/mL,12.5 µg/mL
CCc1cc(=O)c2c(OCC(O)CNC(C)C)c3ccoc3c(OC)c2o1 (stereo not shown),"microbial growth, broth dilution",ATCC25,19 h,> 256 µg/mL
CC1(C)S[C@@H]2[C@H](NC(=O)Cc3ccccc3)C(=O)N2[C@H]1C(=O)O,broth microdilution,ATCC 25922,"16 to 20 h, 37 °C",50 µg/mL
COc1ccc(C=Nc2ncn[nH]2)cc1,"microbial growth, broth dilution",ATCC25922,,> 256 µg/mL
ent-Arg10-teixobactin,,ATCC 10798,,> 32 µg/mL
CCn1cc(C(=O)O)c(=O)c2ccc(C)nc21,"microbial growth, broth dilution",ATCC25922,,3.12 to 6.25 µg/mL
CCc1cc(=O)c2c(OCC(O)CN3CCOCC3)c3ccoc3c(OC)c2o1 (stereo not shown),"microbial growth, broth dilution",ATCC25,19 h,> 256 µg/mL
CC[C@@H](C)[C@@H](NC(=O)[C@@H](Cc1c[nH]c2ccccc12)NC(=O)[C@H](N)CCCNC(=N)N)C(=O)N[C@H](CCCNC(=N)N)C(=O)N[C@H](Cc1c[nH]c2ccccc12)C(=O)N[C@@H](C(=O)N[C@H](Cc1c[nH]c2ccccc12)C(=O)N[C@H](CCCNC(=N)N)C(=O)N[C@H](CCCCN)C(=O)N[C@H](CCCCN)C(=O)N[C@H](CC(C)C)C(=O)N[C@H](CCCNC(=N)N)C(N)=O)C(C)C,broth microdilution,"ATCC 25922, LB medium","16 to 20 h, 37 °C",3.12 to 6.25 µg/mL
CCc1cc(=O)c2c(OCC(O)CN3CCC(C)CC3)c3ccoc3c(OC)c2o1 (stereo not shown),"microbial growth, broth dilution",ATCC25,19 h,> 256 µg/mL
CC[C@H](C)[C@H](NC(=O)[C@H](CCCNC(=N)N)NC(=O)CNC(=O)[C@H](CC(C)C)NC(=O)[C@H](Cc1ccccc1)NC(=O)[C@H](CCCCN)NC(=O)[C@H](CO)NC(=O)[C@H](Cc1ccccc1)NC(=O)[C@H](Cc1c[nH]c2ccccc12)NC(=O)[C@H](CCC(N)=O)NC(=O)[C@@H](NC(=O)[C@@H](N)Cc1ccccc1)C(C)C)C(=O)N[C@@H](CC(C)C)C(N)=O,,ATCC 25922,"1 h, 37 °C, dividing cells in LB",> 100 µg/mL
CC1(C)SC2C(NC(=O)C(NC(=O)C3=C(O)C(Cc4ccccc4)NC3=O)c3ccccc3)C(=O)N2C1C(=O)O (stereo not shown),broth microdilution,"BW25113, Mueller-Hinton broth",together with: CCCP 50 µg/mL,25 µg/mL

# A few entries again:
Substance,assay,test system,conditions,MIC
CC[C@H](C)[C@H](NC(=O)[C@H](CCCNC(=N)N)NC(=O)[C@H](CCCNC(=N)N)NC(=O)[C@@H]1CCCN1C(=O)[C@@H]1CCCN1C(=O)[C@H](CCCNC(=N)N)NC(=O)[C@@H]1CCCN1C(=O)[C@H](CCCNC(=N)N)NC(=O)[C@@H]1CCCN1C(=O)[C@H](CC(C)C)NC(=O)[C@H](Cc1ccc(O)cc1)NC(=O)[C@@H]1CCCN1C(=O)[C@@H]1CCCN1C(=O)[C@H](CCCCN)NC(=O)[C@H](CC(=O)O)NC(=O)[C@@H](N)C(C)C)C(=O)N[C@@H](Cc1ccc(O)cc1)C(=O)N[C@@H](CC(N)=O)C(=O)N[C@@H](CCCNC(=N)N)C(N)=O,,"T7 LysY/I, Mueller-Hinton broth","18 h, 37 °C",25 ± 5 µM
